{"data": "Experimental data from different studies", "Gnao1": "Gnao1, AlexaFluor 532 label (Rattus norvegicus, UniProt P59215)", "B1": "ftsZ (Bacillus subtilis, UniProt P17865); sequence looked up; chain MLEFETNIDGLASIKVIGVGGGGNNAVNRMIENEVQGVEYIAVNTDAQALNLSKAEVKMQIGAKLTRGLGAGANPEVGKKAAEESKEQIEEALKGADMVFVTAGMGGGTGTGAAPVIAQIAKDLGALTVGVVTRPFTFEGRKRQLQAAGGISAMKEAVDTLIVIPNDRILEIVDKNTPMLEAFREADNVLRQGVQGISDLIATPGLINLDFADVKTIMSNKGSALMGIGIATGENRAAEAAKKAISSPLLEAAIDGAQGVLMNITGGTNLSLYEVQEAADIVASASDQDVNMIFGSVINENLKDEIVVTVIATGFIEQEKDVTKPQRPSLNQSIKTHNQSVPKREPKREEPQQQNTVSRHTSQPADDTLDIPTFLRNRNKRG", "B2": "CSF1 33-496 (Homo sapiens, UniProt P09603); chain EEVSEYCSHMIGSGHLQSLQRLIDSQMETSCQITFEFVDQEQLKDPVCYLKKAFLLVQDIMEDTMRFRDNTPNAIAIVQLQELSLRLKSCFTKDYEEHDKACVRTFYETPLQLLEKVKNVFNETKNLLDKDWNIFSKNCNNSFAECSSQDVVTKPDCNCLYPKAIPSSDPASVSPHQPLAPSMAPVAGLTWEDSEGTEGSSLLPGEQPLHTVDPGSAKQRPPRSTCQSFEPPETPVVKDSTIGGSPQPRPSVGAFNPGMEDILDSAMGTNWVPEEASGEASEIPVPQGTELSPSRPGGGSMQTEPARPSNFLSASSPLPASAKGQQPADVTGTALPRVGPVRPTGQDWNHTPQKTDHPSALLRDPPEPGSPRISSLRPQGLSNPSTLSAQPQLSRSHSSGSVLPLGELEGRRSTRDRRSPAEPEGGPASEGAARPLPRFNSVPLTDTGHERQSEGSFSPQLQES", "B3": "UGT1A9 (Homo sapiens, UniProt O60656); chain GKLLVVPMDGSHWFTMRSVVEKLILRGHEVVVVMPEVSWQLGRSLNCTVKTYSTSYTLEDLDREFKAFAHAQWKAQVRSIYSLLMGSYNDIFDLFFSNCRSLFKDKKLVEYLKESSFDAVFLDPFDNCGLIVAKYFSLPSVVFARGILCHYLEEGAQCPAPLSYVPRILLGFSDAMTFKERVRNHIMHLEEHLLCHRFFKNALEIASEILQTPVTEYDLYSHTSIWLLRTDFVLDYPKPVMPNMIFIGGINCHQGKPLPMEFEAYINASGEHGIVVFSLGSMVSEIPEKKAMAIADALGKIPQTVLWRYTGTRPSNLANNTILVKWLPQNDLLGHPMTRAFITHAGSHGVYESICNGVPMVMMPLFGDQMDNAKRMETKGAGVTLNVLEMTSEDLENALKAVINDKSYKENIMRLSSLHKDRPVEPLDLAVFWVEFVMRHKGAPHLRPAAHDLTWYQYHSLDVIGFLLAVVLTVAFITFKCCAYGYRKCLGKKGRVKKAHKSKTH", "B4": "RGS16 (Homo sapiens, UniProt O15492); sequence looked up; chain MCRTLAAFPTTCLERAKEFKTRLGIFLHKSELGCDTGSTGKFEWGSKHSKENRNFSEDVLGWRESFDLLLSSKNGVAAFHAFLKTEFSEENLEFWLACEEFKKIRSATKLASRAHQIFEEFICSEAPKEVNIDHETHELTRMNLQTATATCFDAAQGKTRTLMEKDSYPRFLKSPAYRDLAAQASAASATLSSCSLDEPSHT", "B5": "MIF4GD K10A (Homo sapiens, UniProt A9UHW6); sequence looked up; chain MGEPSREEYAIQSFDAETQQLLKTALKDPGAVDLEKVANVIVDHSLQDCVFSKEAGRMCYAIIQAESKQAGQSVFRRGLLNRLQQEYQAREQLRARSLQGWVCYVTFICNIFDYLRVNNMPMMALVNPVYDCLFRLAQPDSLSKEEEVDCLVLQLHRVGEQLEKMNGQRMDELFVLIRDGFLLPTGLSSLAQLLLLEIIEFRAAGWKTTPAAHKYYYSEVSD", "B6": "Sas-4 708-901 (Drosophila melanogaster, UniProt Q9VI72); sequence looked up; chain ANSSSDFKREITNADGSKDIWYPNGNLKKISADGMNLRMLYFNKDIKETNIREGTVKYYYAETNTWHTSYLDGLEILEFPNGQTEHRRKDGTVEIHFPNNSIKIVDPSDTEKLEEWRYADGTHLVQLRNGDKILNLPNGQKEIHTKLNKRREYPDGTVKLVYPDGSQETRYSNGRVRLKDKDGKLIMDTDYAKY", "B7": "RGS4 residues 52-end 52-205 del1-51 (UniProt P49799); sequence looked up; chain SQEEVKKWAESLENLINHECGLAAFKAFLKSEYSEENIDFWISCEEYKKIKSPSKLSPKAKKIYNEFISVQATKEVNLDSCTREETSRNMLEPTITCFDEAQKKIFNLMEKDSYRRFLKSRFYLDLTNPSSCGAEKQKGAKSSADCTSLVPQCA", "B8": "GRIK5 amino terminal domain 20-406 (Rattus norvegicus, UniProt Q63273); N-linked glycans; chain VLSSLRMAAILDDQTVCGRGERLALALAREQINGIIEVPAKARVEVDIFELQRDSQYETTDTMCQILPKGVVSVLGPSSSPASASTVSHICGEKEIPHIKVGPEETPRLQYLRFASVSLYPSNEDVSLAVSRILKSFNYPSASLICAKAECLLRLEELVRGFLISKETLSVRMLDDSRDPTPLLKEIRDDKVSTIIIDANASISHLVLRKASELGMTSAFYKYILTTMDFPILHLDGIVEDSSNILGFSMFNTSHPFYPEFVRSLNMSWRENCEASTYPGPALSAALMFDAVHVVVSAVRELNRSQEIGVKPLACTSANIWPHGTSLMNYLRMVEYDGLTGRVEFNSKGQRTNYTLRILEKSRQGHREIGVWYSNRTLAMNATTLDI", "note": "Numbers after ± are the reported error.", "chain of UniProt P59215 (whole entry, unmodified, looked up)": "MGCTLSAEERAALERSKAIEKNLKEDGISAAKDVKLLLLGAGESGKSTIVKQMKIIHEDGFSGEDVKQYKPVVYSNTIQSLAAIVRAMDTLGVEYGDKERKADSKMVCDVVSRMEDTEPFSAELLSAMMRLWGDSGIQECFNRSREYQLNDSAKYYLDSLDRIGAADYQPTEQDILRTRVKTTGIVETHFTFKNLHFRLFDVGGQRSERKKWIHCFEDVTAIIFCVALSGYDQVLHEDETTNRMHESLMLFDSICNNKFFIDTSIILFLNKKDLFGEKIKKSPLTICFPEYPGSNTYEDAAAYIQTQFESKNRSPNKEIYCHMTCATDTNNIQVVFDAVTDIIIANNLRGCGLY", "chain of UniProt P54166 (whole entry, unmodified, looked up)": "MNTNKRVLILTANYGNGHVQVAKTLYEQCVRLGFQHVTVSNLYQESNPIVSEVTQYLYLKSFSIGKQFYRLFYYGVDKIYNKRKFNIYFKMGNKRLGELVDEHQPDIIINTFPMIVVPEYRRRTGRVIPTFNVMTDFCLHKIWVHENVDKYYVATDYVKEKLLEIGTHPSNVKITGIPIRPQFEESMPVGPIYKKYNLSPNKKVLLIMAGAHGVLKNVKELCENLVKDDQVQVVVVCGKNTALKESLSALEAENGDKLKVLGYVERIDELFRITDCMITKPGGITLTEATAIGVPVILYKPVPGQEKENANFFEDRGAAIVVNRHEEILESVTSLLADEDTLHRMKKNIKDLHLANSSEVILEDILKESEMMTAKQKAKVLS", "chain of UniProt P08575 (whole entry, looked up)": "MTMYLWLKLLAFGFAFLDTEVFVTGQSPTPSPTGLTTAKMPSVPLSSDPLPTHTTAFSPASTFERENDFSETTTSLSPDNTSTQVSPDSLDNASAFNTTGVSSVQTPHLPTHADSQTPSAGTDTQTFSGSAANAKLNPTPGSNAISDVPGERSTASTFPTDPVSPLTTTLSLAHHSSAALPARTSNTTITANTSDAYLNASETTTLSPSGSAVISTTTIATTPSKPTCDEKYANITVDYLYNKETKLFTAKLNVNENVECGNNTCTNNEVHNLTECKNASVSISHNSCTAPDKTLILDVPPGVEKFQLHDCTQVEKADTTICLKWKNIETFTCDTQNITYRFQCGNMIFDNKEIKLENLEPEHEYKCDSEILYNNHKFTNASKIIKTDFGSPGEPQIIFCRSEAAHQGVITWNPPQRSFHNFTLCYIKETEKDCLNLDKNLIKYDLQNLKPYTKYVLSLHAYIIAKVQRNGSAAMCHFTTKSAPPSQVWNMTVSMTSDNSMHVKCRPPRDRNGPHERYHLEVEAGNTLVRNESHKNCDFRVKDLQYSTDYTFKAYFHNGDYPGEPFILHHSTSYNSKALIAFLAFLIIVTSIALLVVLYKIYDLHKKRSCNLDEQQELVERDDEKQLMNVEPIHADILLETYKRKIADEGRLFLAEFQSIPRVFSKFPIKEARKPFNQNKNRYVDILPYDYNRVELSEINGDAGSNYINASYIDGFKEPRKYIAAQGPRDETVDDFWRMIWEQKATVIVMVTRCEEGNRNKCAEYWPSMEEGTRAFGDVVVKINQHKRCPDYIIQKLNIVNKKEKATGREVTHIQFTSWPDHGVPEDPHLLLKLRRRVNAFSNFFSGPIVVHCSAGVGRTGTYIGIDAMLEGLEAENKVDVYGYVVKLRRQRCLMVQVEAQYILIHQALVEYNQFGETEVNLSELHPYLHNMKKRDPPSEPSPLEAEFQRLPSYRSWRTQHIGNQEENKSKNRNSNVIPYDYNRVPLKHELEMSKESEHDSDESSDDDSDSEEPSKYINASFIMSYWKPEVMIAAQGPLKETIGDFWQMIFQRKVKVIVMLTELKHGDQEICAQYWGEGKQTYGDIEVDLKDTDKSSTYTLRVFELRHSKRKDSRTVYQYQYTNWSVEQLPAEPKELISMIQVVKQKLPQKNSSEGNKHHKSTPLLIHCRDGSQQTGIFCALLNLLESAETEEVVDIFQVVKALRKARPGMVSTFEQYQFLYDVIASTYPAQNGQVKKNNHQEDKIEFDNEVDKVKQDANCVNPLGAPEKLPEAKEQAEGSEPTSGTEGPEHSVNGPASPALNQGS", "chain of UniProt P42260 (whole entry, unmodified, looked up)": "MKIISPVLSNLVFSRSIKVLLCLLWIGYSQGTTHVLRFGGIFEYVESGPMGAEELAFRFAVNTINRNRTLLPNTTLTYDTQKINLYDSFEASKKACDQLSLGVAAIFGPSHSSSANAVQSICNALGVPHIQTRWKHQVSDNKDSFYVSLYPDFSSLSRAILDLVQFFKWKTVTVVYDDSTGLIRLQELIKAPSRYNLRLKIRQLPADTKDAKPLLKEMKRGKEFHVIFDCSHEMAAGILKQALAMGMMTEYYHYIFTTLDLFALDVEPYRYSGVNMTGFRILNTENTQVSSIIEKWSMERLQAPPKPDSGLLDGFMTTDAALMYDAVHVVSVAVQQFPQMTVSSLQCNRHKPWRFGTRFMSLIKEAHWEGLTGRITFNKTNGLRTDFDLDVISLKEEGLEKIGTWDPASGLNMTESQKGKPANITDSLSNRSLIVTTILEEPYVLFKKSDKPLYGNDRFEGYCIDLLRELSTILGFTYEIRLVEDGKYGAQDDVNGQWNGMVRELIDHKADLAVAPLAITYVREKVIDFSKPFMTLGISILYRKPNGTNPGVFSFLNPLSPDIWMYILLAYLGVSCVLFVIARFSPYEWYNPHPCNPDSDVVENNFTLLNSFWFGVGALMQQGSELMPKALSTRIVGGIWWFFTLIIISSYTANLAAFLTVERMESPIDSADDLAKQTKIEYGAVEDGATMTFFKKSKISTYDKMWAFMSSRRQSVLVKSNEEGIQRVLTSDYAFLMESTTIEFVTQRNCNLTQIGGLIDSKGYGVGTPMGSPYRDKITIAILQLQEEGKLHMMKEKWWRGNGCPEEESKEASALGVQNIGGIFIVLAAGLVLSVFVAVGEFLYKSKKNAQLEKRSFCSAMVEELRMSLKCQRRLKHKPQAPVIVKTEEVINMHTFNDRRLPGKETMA", "chain of UniProt P20936 (whole entry, looked up)": "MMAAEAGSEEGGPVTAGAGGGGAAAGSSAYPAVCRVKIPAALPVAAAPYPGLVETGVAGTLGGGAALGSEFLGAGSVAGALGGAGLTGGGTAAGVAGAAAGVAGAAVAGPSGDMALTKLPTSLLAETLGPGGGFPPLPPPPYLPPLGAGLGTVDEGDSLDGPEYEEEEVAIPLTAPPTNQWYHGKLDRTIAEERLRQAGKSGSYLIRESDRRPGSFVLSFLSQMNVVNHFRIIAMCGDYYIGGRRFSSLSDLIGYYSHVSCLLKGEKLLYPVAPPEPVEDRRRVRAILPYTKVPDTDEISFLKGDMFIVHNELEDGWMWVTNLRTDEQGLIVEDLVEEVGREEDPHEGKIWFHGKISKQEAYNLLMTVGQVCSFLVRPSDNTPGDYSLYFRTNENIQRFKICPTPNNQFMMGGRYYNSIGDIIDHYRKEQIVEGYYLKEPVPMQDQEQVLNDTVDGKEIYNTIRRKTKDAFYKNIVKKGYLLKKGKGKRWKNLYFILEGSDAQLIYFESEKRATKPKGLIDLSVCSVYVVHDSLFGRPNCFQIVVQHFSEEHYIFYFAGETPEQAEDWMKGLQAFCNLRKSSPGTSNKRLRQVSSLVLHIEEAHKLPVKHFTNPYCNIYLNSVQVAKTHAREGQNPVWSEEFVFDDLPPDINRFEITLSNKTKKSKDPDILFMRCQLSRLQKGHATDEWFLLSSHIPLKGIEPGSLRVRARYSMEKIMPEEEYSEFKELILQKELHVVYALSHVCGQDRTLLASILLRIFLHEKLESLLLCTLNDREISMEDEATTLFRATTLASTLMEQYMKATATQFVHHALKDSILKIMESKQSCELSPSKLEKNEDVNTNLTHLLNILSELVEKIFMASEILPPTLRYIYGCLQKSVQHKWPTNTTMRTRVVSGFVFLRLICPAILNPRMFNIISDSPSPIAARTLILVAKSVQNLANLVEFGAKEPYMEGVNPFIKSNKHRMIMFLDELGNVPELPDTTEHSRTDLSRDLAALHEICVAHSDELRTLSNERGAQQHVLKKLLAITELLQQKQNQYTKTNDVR", "chain of UniProt Q03392 (whole entry, looked up)": "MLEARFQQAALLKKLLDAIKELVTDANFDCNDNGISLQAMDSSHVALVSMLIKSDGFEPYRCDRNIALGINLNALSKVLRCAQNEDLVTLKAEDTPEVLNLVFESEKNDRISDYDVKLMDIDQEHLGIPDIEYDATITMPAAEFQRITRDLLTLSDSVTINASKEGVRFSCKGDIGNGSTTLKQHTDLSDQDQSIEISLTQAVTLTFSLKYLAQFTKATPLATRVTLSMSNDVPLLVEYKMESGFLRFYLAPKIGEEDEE"}
{"Substance": "B1 (ftsZ)", "target or system": "UgtP F112A/V117A/E306A/N309A (Bacillus subtilis, UniProt P54166)", "test": "BLI", "conditions": "pH 8.0, 30 °C, NaCl 100 mM, without UDP-glc", "measurement": "Kd", "value": "0.016 µM"}
{"Substance": "B2 (CSF1 33-496)", "target or system": "CSF1R Fc fusion D1-D5 M149K (Homo sapiens, UniProt P07333)", "test": "SPR", "conditions": "pH 7.4, NaCl 0.15 M", "measurement": "Kd", "value": "0.0021 µM"}
{"Substance": "B3 (UGT1A9)", "target or system": "O=c1c(O)c(-c2ccc(O)c(O)c2)oc2ccccc12", "test": "steady-state kinetics", "conditions": "pH 7.4, 37 °C", "measurement": "Km", "value": "0.1 µM"}
{"Substance": "B4 (RGS16)", "target or system": "Gnao1", "test": "flow cytometry", "conditions": "pH 8.0, with: GDP-AlF4-", "measurement": "Kd", "value": "0.037 µM"}
{"Substance": "HIWWNDN", "test system": "peptide, human polyclonal IgM RF STR", "conditions": "concentration not given, 5 µg/mL mAb II-481 coated, with: RF at 50% max binding concentration", "measurement": "inhibition", "value": "10%"}
{"Substance": "WKLGFFKRKYEKM (ITGA2 cytoplasmic peptide 1154-1166 (x); EDANS label)", "target or system": "RASA1 714-1047 (Homo sapiens, UniProt P20936)", "test": "fluorescence polarisation", "test system": "peptide", "conditions": "with: EDANS peptide 5 µM", "measurement": "Kd", "value": "6 µM"}
{"Substance": "FGF14 fragment, N-terminal adamantanecarbonyl, Glu tert-butyl ester, C-terminal ethyl ester (Homo sapiens)", "target or system": "FGF14 64-252 (Homo sapiens, UniProt Q92915-2)", "test": "SPR", "measurement": "Kd", "value": "9.47 ± 1.22 µM"}
{"Substance": "ARTKQTARKSTG (Histone H3.1 2-13 (Homo sapiens, UniProt P68431))", "target or system": "EP300 1287-1663 Y1467F (Homo sapiens, UniProt Q09472)", "test": "tryptophan fluorescence titration", "test system": "peptide", "conditions": "two-site model", "measurement": "Kd", "value": "38 µM"}
{"Substance": "Ac-KSKQTTFPAYNPPLYNTVSE-NH2 (spd1 49-68 (Schizosaccharomyces pombe, UniProt Q10585); N-acetyl, C-amide)", "target or system": "pcn1 1-260 (Schizosaccharomyces pombe, UniProt Q03392)", "test": "NMR titration", "test system": "peptide", "conditions": "pH 7.4, NaCl 100 mM", "measurement": "Kd", "value": "3400 ± 1100 µM"}
{"Substance": "B5 (MIF4GD K10A)", "target or system": "SLBP, phosphorylated, multiple sites (Homo sapiens, UniProt Q14493)", "test": "SPR", "conditions": "pH 7.4, 25 °C, NaCl 150 mM", "measurement": "Kd", "value": "2.15 ± 0.9 µM"}
{"Substance": "NYLAWYQ", "test system": "peptide, human polyclonal IgM RF CLAU", "conditions": "concentration not given, 5 µg/mL mAb II-481 coated, with: RF at 50% max binding concentration", "measurement": "inhibition", "value": "40%"}
{"Substance": "ARTKQTARKSTG (Histone H3.1 2-13 (Homo sapiens, UniProt P68431); sequence looked up)", "target or system": "BIRC2 fragment (Homo sapiens)", "test": "tryptophan fluorescence titration", "test system": "peptide", "conditions": "pH 6.8, 25 °C, NaCl 150 mM", "measurement": "Kd", "value": "0.72 µM"}
{"Substance": "B6 (Sas-4 708-901)", "target or system": "Plk4 PB1-PB2 382-602 (Drosophila melanogaster, UniProt O97143)", "test": "MST", "conditions": "partially purified labeled partner", "measurement": "Kd", "value": "28.2 µM"}
{"Substance": "F5 activated FVa (Homo sapiens, UniProt P12259)", "target or system": "beta2-glycoprotein I/3B7 antibody (Homo sapiens/Mus musculus)", "test": "ELISA", "measurement": "Kd", "value": "0.046 µM"}
{"Substance": "psbB C terminus (Thermosynechococcus elongatus)", "target or system": "psb28 2-116 (Thermosynechococcus elongatus, UniProt Q8DLJ8)", "test": "NMR titration", "conditions": "slow exchange", "measurement": "Kd", "value": "53.92 ± 0.41 µM"}
{"Substance": "B7", "target or system": "Gnao1", "test": "flow cytometry", "conditions": "with: GDP-AlF4-", "measurement": "Kd", "value": "0.115 µM"}
{"Substance": "anti-CD45 clone #4/nivolumab diabody bispecific diabody", "target or system": "PTPRC 26-577 (Homo sapiens, UniProt P08575)", "test": "SPR", "conditions": "25 °C, equilibrium", "measurement": "Kd", "value": "0.75 µM"}
{"Substance": "B8", "target or system": "Grik2 amino terminal domain 32-420 F58A/G215N/M217T, N-linked glycans (Rattus norvegicus, UniProt P42260)", "test": "AUC", "conditions": "pH 7.5, 20 °C, NaCl 200 mM, sedimentation velocity, monomer-dimer model", "measurement": "Kd", "value": "0.109 µM"}
{"Substance": "EDGGSFWYGAMKGLYG (designed peptide)", "target or system": "CIB1 (Homo sapiens, UniProt Q99828)", "test": "ITC", "test system": "peptide", "conditions": "25 °C, with: CaCl2 0.1 mM", "measurement": "Kd", "value": "0.112 µM"}
{"note": "Excerpt of the above:"}
{"Substance": "FGF14 fragment, N-terminal adamantanecarbonyl, Glu tert-butyl ester, C-terminal ethyl ester (Homo sapiens)", "target or system": "FGF14 64-252 (Homo sapiens, UniProt Q92915-2)", "test": "SPR", "measurement": "Kd", "value": "9.47 ± 1.22 µM"}
{"Substance": "NYLAWYQ", "test system": "peptide, human polyclonal IgM RF CLAU", "conditions": "concentration not given, 5 µg/mL mAb II-481 coated, with: RF at 50% max binding concentration", "measurement": "inhibition", "value": "40%"}
